Results pooled from the literature.
Protocols differ between the studies behind these lines.

Structure (SMILES) | assay | system | conditions | measurement | value
Cc1cc(OCCOCCC(F)(F)P(=O)(O)O)ccc1CCc1cnc2c(N)nc3cc(CCC(=O)O)ccc3c2c1 | refers to: chills | adults with advanced solid tumours | dose not given, by treatment group, all grades | patients with non-serious AE | 4.8%
CCNCCCNC/C=C\CNCCCNCC |  | advanced refractory solid tumour patients | intravenous, dose not given, fatigue | patients with treatment-related TEAE | 34.8%
C=CC(=O)N1CC[C@H](n2nc(C#Cc3cc(OC)cc(OC)c3)c3c(N)ncnc32)C1 | refers to: blood creatinine increased | hyperphosphataemia patients | oral, once daily, any grade, lanthanum carbonate users | patients with ADR | 8.3%
CO[C@H]1C[C@@H]2CC[C@@H](C)[C@@](O)(O2)C(=O)C(=O)N2CCCC[C@H]2C(=O)O[C@H]([C@H](C)C[C@@H]2CC[C@@H](OC(=O)NCCOCCOCCOCCOCCOCCOCCOCCOCCC(=O)N3CCc4cc(Cn5nc(-c6ccc7oc(N)nc7c6)c6c(N)ncnc65)ccc4C3)[C@H](OC)C2)C[C@@H](O)[C@H](C)/C=C(\C)[C@@H](O)[C@@H](OC)C(=O)[C@H](C)C[C@H](C)/C=C/C=C/C=C/1C | refers to: treatment-related decreased appetite | patients with advanced solid tumours | intravenous, dose not given, any grade, all doses | patients with AE | 29.8%
CC(=O)c1c(C)c2cnc(Nc3ccc(C4CCN(CCS(C)(=O)=O)CC4)cn3)nc2n(C2CCCC2)c1=O |  | HR+/HER2- advanced breast cancer patients | oral, 100 mg bid, grade 3/4, monotherapy arm | patients with hypertriglyceridaemia | 0%
Nc1nc2cc(-c3ccc4ncc(C(=O)N5CCOCC5)n4c3)ccc2o1 | drug-related adverse events, grade ≥3 | patients with advanced solid tumours | dose not given | patients with adverse events | 27%
COc1cc2c(Oc3ccc4[nH]c(C)cc4c3F)ccnc2cc1OCC1(N)CC1 |  | paediatric refractory sarcoma patients | dose not given | patients with grade 3 Triglyceride elevation | 0%
O=C1Nc2cc3[nH]nc(-c4ccncc4)c3cc2CN1Cc1ccccc1 | CTCAE v4.03 | advanced solid tumour patients | intravenous, 5.4 mg/kg, schedules 1/2 | patients with ≥1 TEAE | 100%
COc1nnc2ccc(N3CCC(c4ccc(OCCN5CCN(C)C(=O)[C@H]5C)cc4)CC3)nn12 | refers to: diarrhea | patients with solid tumours or lymphoma | oral, dose not given, all grades, treatment-emergent | patients with adverse event | 32.4%
CN1CC[C@@H](c2c(O)cc(O)c3c(=O)cc(-c4ccc(C(F)(F)F)cc4Cl)oc23)[C@@H]1CO | refers to: urinary incontinence | AML | oral, 200 mg, grade 3 to 4, intermittent dosing | patients with adverse event | 10%
N[C@@H]1c2ccccc2OC12CCN(c1cnc3c(N4CCCc5ncccc54)n[nH]c3n1)CC2 |  | advanced solid tumour patients | oral, 150 mg once daily | patients with grade ≥3 TEAE | 75%
C=CCNc1c(O)cc2c(O)c1C[C@@H](C)C[C@H](OC)[C@H](O)[C@@H](C)/C=C(\C)[C@H](OC(N)=O)[C@@H](OC)/C=C\C=C(/C)C(=O)N2 |  | unresectable or metastatic sarcoma | intravenous, 225 mg/m^2, grade 3-4 lab change | patients with ALP increase | 0%

For quick reference, copied from above:
Structure (SMILES) | assay | system | conditions | measurement | value
C=CC(=O)N1CC[C@H](n2nc(C#Cc3cc(OC)cc(OC)c3)c3c(N)ncnc32)C1 | refers to: blood creatinine increased | hyperphosphataemia patients | oral, once daily, any grade, lanthanum carbonate users | patients with ADR | 8.3%
